Published values from different studies.
Protocols differ between the studies behind these lines. ± gives the spread as reported.

| Compound | test | test system | conditions | how to read | quantity | result |
| --- | --- | --- | --- | --- | --- | --- |
| CC(C)C[C@H](NC(=O)[C@@H](Cc1c[nH]c2ccccc12)NC(=O)[C@H](Cc1ccc(O)cc1)NC(=O)[C@H](CO)NC(=O)[C@H](Cc1c[nH]c2ccccc12)NC(=O)[C@H](Cc1c[nH]cn1)NC(=O)[C@@H]1CCC(=O)N1)C(=O)N[C@@H](CCCNC(=N)N)C(=O)N1CCC[C@H]1C(=O)NCC(N)=O |  | Chinese CPP girls | intramuscular, 22.5 mg, 12 months, day 1, month 6 |  | patients, drug-related Obesity TEAEs | 3.2% |
| C[C@@H]1C[C@@]1(C(=O)O)C(=O)NCc1ccc(Cl)c(Cl)c1 | colloidal aggregate formation, dynamic light scattering | 50 mM potassium phosphate buffer | 200 µM, pH 7.0, 1% DMSO | higher = more aggregation | DLS scattered light intensity | 1.37e+06 counts/s |
| C[Si](C)(C)O[Si](C)(C)O[Si](C)(C)C |  | 1-octanol/water | 2.7-6.3 µg/L in water, 20.8 °C |  | log KOW | 6.87 |
| CCC1CC1(NS(=O)(=O)c1cccc(Cl)c1O)c1ccc(Cl)cc1 (stereo not drawn) | colloidal aggregate formation, dynamic light scattering | 50 mM potassium phosphate buffer | 200 µM, pH 7.0, 1% DMSO | higher = more aggregation | DLS scattered light intensity | 644000 counts/s |
| Cc1cc(C)c2c(=O)cc(C(=O)Nc3nc4ccc(F)cc4s3)oc2c1 | haemolysis | sheep erythrocytes | 1 h, pH 7.5 |  | HC50 | > 128 µg/mL |
| CNCCOC12CC3(C)CC(C)(CC(Cn4ncc(-c5ccc(N6CCc7cccc(C(=O)Nc8nc9ccccc9s8)c7C6)nc5C(=O)O)c4C)(C3)C1)C2 |  | beagle dog, male, anaesthetised | intravenous bolus, 0.03 mg/kg, 90 min | relative to: baseline | PR interval change | -5 ms |
| COc1cc(C(=O)N2CCC3(CC2)CC(=O)c2c(cnn2C(C)C)C3)cc(-c2ccc(C(=O)O)cc2)n1 | item: direct LDL cholesterol | human, fasting serum | 3 mg every 12 h, day 13, adjusted geometric mean | relative to: baseline and placebo | placebo-adjusted change from baseline | 6.2% |
| FC(F)(F)c1ccc(CNc2ccc(Cc3c[nH]c4ncc(Cl)cc34)cn2)cn1 | item: Rash | patients with advanced solid tumours | oral, dose not given, grade 3 and 4, possibly related to drug |  | adverse event incidence | 6% |
| Cc1ccc([C@@H]2O[C@H](CO)[C@@H](O)[C@H](O)[C@H]2O)cc1Cc1ccc(-c2ccc(F)cc2)s1 |  | Japanese type 2 diabetes patients | 25 mg, day 3, 24 h urine collection | relative to: baseline | urinary calcium excretion change | -33 mg |
| CNC(=O)c1cc(Oc2ccc(NC(=O)Nc3cc(C(C)(C)C)nn3-c3ccc4ncccc4c3)c(F)c2)ccn1 |  | human | oral, dose not given, cycles 1 and 2, Low AUC(0-4 h) subgroup |  | patients with any AE of special interest | 40% |
| CNC(=O)c1cc(Oc2ccc(NC(=O)Nc3ccc(Cl)c(C(F)(F)F)c3)c(F)c2)cc[n+]1[O-] |  | wild-type mice, plasma | oral, molecular weight corrected, added: regorafenib single dose |  | metabolite to parent AUC ratio | 10.5% |
| O=C(Nc1nc2cccc(-c3ccc(CN4CCS(=O)(=O)CC4)cc3)n2n1)C1CC1 | item: any adverse event | human rheumatoid arthritis patients | oral, 200 mg once daily, 4 weeks, regardless of relatedness |  | treatment-emergent adverse events | 50% |
| COCCCNC(=N)c1ccc(NC(=O)c2ccc(C(=O)Nc3ccc(C(=N)NCCCOC)cc3)cc2)cc1 | haemolysis | sheep erythrocytes | 1 h, pH 7.5 |  | HC50 | > 128 µg/mL |
| CCOc1c([C@H](C)n2nc(C)c3c(N)ncnc32)cc(Cl)c(F)c1[C@@H]1CNC(=O)C1 | ECG | previously treated B-cell malignancy patients | oral, 10 mg once daily, baseline QTcF ≤450 ms |  | observations ΔQTcF >30 ≤60 ms | 0% |
| CNC(=O)c1ccc(-c2cnc3ncc(Cc4ccc5ncccc5c4)n3n2)cc1F | phase 1 clinical trial, item: peripheral edema | other expansion cohort | oral, 600 mg twice daily, grade 3 or 4 |  | adverse event incidence | 0% |
| Cc1ccc(Sc2ccccc2N2CCNCC2)c(C)c1 | item: blood in urine | healthy adult men | oral, 10 mg daily, 12 days |  | participants with TEAE | 0% |
| C[C@H](CCC(=O)NCC(=O)O)[C@H]1CC[C@H]2[C@@H]3CC[C@@H]4C[C@H](O)CC[C@]4(C)[C@H]3CC[C@]12C |  | human, plasma | endogenous baseline diurnal |  | daily mean concentration | 31 ± 9.3 nM |
| C=CC(=O)Nc1cc(Nc2nccc(-c3cn(C)c4ccccc34)n2)c(OC)cc1N(C)CCN(C)C |  | human plasma | 24 h, storage stability, LLOQ sample |  | recovery | 53.5% |
| O=S(=O)(Nc1ccc(F)c2cnccc12)c1cc(Cl)cc(Cl)c1O | colloidal aggregate formation, dynamic light scattering | 50 mM potassium phosphate buffer | 200 µM, pH 7.0, 1% DMSO | higher = more aggregation | DLS scattered light intensity | 760000 counts/s |
| N#C[C@@]1(c2ccc3c(N)ncnn23)O[C@H](CO)[C@@H](O)[C@H]1O |  | beagle dog, male, plasma | oral, 6.5 mg/kg, capsule |  | MRT(0-inf) | 4.19 h |

| Compound | test | test system | conditions | how to read | quantity | result |
| --- | --- | --- | --- | --- | --- | --- |
| C=CC(=O)N1CCC(c2ccc(C(N)=O)c(-c3ccc(Oc4ccccc4)cc3)n2)CC1 |  | relapsed/refractory mantle cell lymphoma patients | oral, 150 mg once daily, part, CTCAE v4.03 |  | serious treatment-related AE rate | 0% |
| CC(C)[C@H](N)C(=O)NCCCS(=O)(=O)O |  | human both sexes, plasma | oral, 171 mg twice daily days 2-7, day 7, fasted capsule |  | AUC(0-12) | 5790 ng·h/mL |
| CC1(C)CC[C@]2(NC(=O)C(C)(F)F)CC[C@]3(C)[C@H](C(=O)C=C4[C@@]5(C)C=C(C#N)C(=O)C(C)(C)[C@@H]5CC[C@]43C)[C@@H]2C1 |  | human, plasma | oral, dose not given, added: efavirenz | relative to: without efavirenz | AUC(0-tlast) decrease | 48% |
| CN1C[C@H](COc2nccc3c(NCc4ccco4)cc(Cl)nc23)OC1=O |  | rabbit, isolated Langendorff heart | dose not given |  | effect on QTc | negative |
| CC(C)NCC(O)c1ccc(NS(C)(=O)=O)cc1 (racemic) |  | male Hartley guinea pig, anaesthetized | intravenous, 3 mg/kg, baseline before infusion |  | QTc interval | 335 ± 0.5 ms |
| O=c1[nH]c(=O)n([C@@H]2O[C@H](CO)[C@@H](O)[C@@H]2F)cc1[125I] |  | nude mice, tumour-bearing, blood | dose not given, 2 h |  | blood radioactivity remaining | 0.69 ± 0.26 %ID/g |
| N#Cc1ccc2c(c1)[C@H]1CCCN(C(=O)c3ccc4[nH]cnc4c3)[C@H]1C2 |  | human | 10 mg, end of trial |  | minimum ACTH level | 1.4 pmol/L |
| COc1cc(Nc2ncc3c(n2)-c2ccc(Cl)cc2C(c2c(F)cccc2OC)=NC3)ccc1C(=O)O | item: increased AST, grade 3 | cancer patients, phase 1/2 | oral, dose not given, added: pembrolizumab |  | patients with adverse event | 4% |
| CC(C)(C(=O)N1CCOc2c(C#N)cncc2C1)C(F)F | item: Dyspepsia | human | oral, 20 mg once daily, 14 days, multiple ascending dose |  | subjects with adverse event | 0% |
| C[C@@H](Oc1ccc(S(C)(=O)=O)cc1C(=O)N1C[C@@H]2C[C@]2(c2cc(C(F)(F)F)on2)C1)C(F)(F)F |  | human | oral plus intravenous microtracer, dose not given |  | subjects related visual brightness | 16.7% |
| Nc1ccn([C@@H]2O[C@H](CO)[C@@H](O)C2(F)F)c(=O)n1 | item: dFdU | human, plasma | intravenous, 800 mg/m^2, added: before paricalcitol |  | Tmax, median | 1 h |
| COc1cc(N)c(Cl)cc1C(=O)NC1CCN(CCCOc2ccc(F)cc2)CC1OC (stereo not drawn) |  | male Hartley guinea pig, anaesthetized | intravenous, 1 mg/kg, baseline before infusion |  | QTc interval | 306 ± 0.2 ms |
| Cc1cc(-c2nnc(N)nc2-c2ccc(F)cc2)cc(Cl)n1 | item: hypothyroidism | IO-naive other solid tumour patients | oral, 100 mg once daily, treatment-related, grade 1 |  | patients with immune-mediated AE | 0% |
| CCOC(=O)C(CC(C)CC)NS(=O)(=O)c1cccc(Cl)c1O (stereo not drawn) | colloidal aggregate formation, dynamic light scattering | 50 mM potassium phosphate buffer | 200 µM, pH 7.0, 1% DMSO | higher = more aggregation | DLS scattered light intensity | 1.12e+07 counts/s |
| CO[C@H]1CC[C@H](N2C(=O)CNc3ncc(-c4ccc(C(C)(C)O)nc4)nc32)CC1 |  | patients, urine | oral, 60 mg, day -1, geometric mean |  | urinary excretion Ae(0-24 h) | 51900 ng |
| CCN1/C(=C/C(C)=O)Sc2ccc(F)cc21 |  | cynomolgus monkey | oral, 100 mg/kg, 4 h post-dose | relative to: pre-dose | PR interval change | 103 ± 3.4% |
| CO/N=C(\C(=O)N[C@@H]1C(=O)N2C(C(=O)O)=C(COC(C)=O)CS[C@H]12)c1csc(N)n1 |  | human whole blood | concentration not given, 8 h, 4 °C |  | deviation from nominal concentration | 4.1% |
| Cc1cc(-c2nccc3c2ccn3CC(=O)Nc2ccc(-c3cnccn3)cn2)ccn1 |  | human | SAD part, single 20 mg dose |  | subjects with cardiac disorders TEAEs | 0% |
| COc1cccc(-c2n[nH]c(SCc3ccccn3)n2)c1OC |  | Sprague-Dawley rat, plasma | oral, 100 mg/kg | relative to: female over male | Cmax ratio | 1.26 |

Some of these lines once more:
| Compound | test | test system | conditions | how to read | quantity | result |
| --- | --- | --- | --- | --- | --- | --- |
| CC(C)(C(=O)N1CCOc2c(C#N)cncc2C1)C(F)F | item: Dyspepsia | human | oral, 20 mg once daily, 14 days, multiple ascending dose |  | subjects with adverse event | 0% |
| C[C@@H](Oc1ccc(S(C)(=O)=O)cc1C(=O)N1C[C@@H]2C[C@]2(c2cc(C(F)(F)F)on2)C1)C(F)(F)F |  | human | oral plus intravenous microtracer, dose not given |  | subjects related visual brightness | 16.7% |
| Nc1ccn([C@@H]2O[C@H](CO)[C@@H](O)C2(F)F)c(=O)n1 | item: dFdU | human, plasma | intravenous, 800 mg/m^2, added: before paricalcitol |  | Tmax, median | 1 h |
| COc1cc(N)c(Cl)cc1C(=O)NC1CCN(CCCOc2ccc(F)cc2)CC1OC (stereo not drawn) |  | male Hartley guinea pig, anaesthetized | intravenous, 1 mg/kg, baseline before infusion |  | QTc interval | 306 ± 0.2 ms |
| Cc1cc(-c2nnc(N)nc2-c2ccc(F)cc2)cc(Cl)n1 | item: hypothyroidism | IO-naive other solid tumour patients | oral, 100 mg once daily, treatment-related, grade 1 |  | patients with immune-mediated AE | 0% |
